Measurements gathered from unrelated publications.
Compare with care: the assays were run in different laboratories. Converted amounts (≈) assume the structure as drawn.
Organism: Candida albicans

CC(=O)N[C@H]1[C@@H](O[C@@H]2O[C@H](C[C@@H](O)[C@H]3O[C@@H](n4ccc(=O)[nH]c4=O)[C@H](O)[C@@H]3O)[C@H](O)[C@H](O)[C@H]2NC(=O)/C=C/CCCCCCCCCC(C)C)O[C@H](CO)[C@@H](O)[C@@H]1O  MIC50 (alamar blue; 18 M): < 0.1 µg/mL
CC[C@H](C)[C@H](NC(=O)CN)C(=O)NCC(=O)N[C@@H](C)C(=O)N[C@H](C(=O)N[C@@H](CC(C)C)C(=O)N[C@@H](CCCCN)C(=O)N[C@H](C(=O)N[C@@H](CC(C)C)C(=O)N[C@H](C(=O)N[C@H](C(=O)NCC(=O)N[C@@H](CC(C)C)C(=O)N1CCC[C@H]1C(=O)N[C@@H](C)C(=O)N[C@@H](CC(C)C)C(=O)N[C@H](C(=O)N[C@@H](CO)C(=O)N[C@@H](Cc1c[nH]c2ccccc12)C(=O)N[C@H](C(=O)N[C@@H](CCCCN)C(=O)N[C@@H](CCCNC(=N)N)C(=O)N[C@@H](CCCCN)C(=O)N[C@@H](CCCNC(=N)N)C(=O)N[C@@H](CCC(N)=O)C(=O)N[C@@H](CCC(N)=O)C(N)=O)[C@@H](C)CC)[C@@H](C)CC)[C@@H](C)O)[C@@H](C)O)C(C)C)C(C)C  MIC (broth microdilution; 14936, RPMI 1640-MOPS; 48 h, 30 °C): 2 µM (≈ 5.69 µg/mL)
C#Cc1ccc(C=NNC(=O)c2ccc(COC)cc2)c(O)c1  FICI (A39; unit not given, with: caspofungin; lower = more synergy): 1
C[C@H](NC(=O)[C@H](CCCNC(=N)N)NC(=O)[C@H](Cc1c[nH]c2ccccc12)NC(=O)[C@H](CCCNC(=N)N)NC(=O)[C@H](Cc1c[nH]c2ccccc12)NC(=O)[C@H](Cc1c[nH]c2ccccc12)NC(=O)[C@H](Cc1c[nH]c2ccccc12)NC(=O)[C@H](CCCNC(=N)N)NC(=O)[C@H](Cc1c[nH]c2ccccc12)NC(=O)[C@H](CCCNC(=N)N)NC(=O)CN)C(N)=O  MIC (broth microdilution; CGMCC 2.209, RPMI 1640-MOPS; 48 h, 30 °C, with: MgCl2 1 mM): 8 µM (≈ 13.6 µg/mL)
C#Cc1cccc(C=NNC(=O)c2ccc(Br)cc2)c1O  FICI (A39; unit not given, with: caspofungin; lower = more synergy): 1
C[C@@H]1[C@H](O)[C@@H](C)/C=C/C=C/C=C/C=C/C=C/C=C/C=C/[C@H](O[C@@H]2O[C@H](C)[C@@H](O)[C@H](N)[C@@H]2O)C[C@@H]2O[C@](O)(C[C@@H](O)C[C@@H](O)[C@H](O)CC[C@@H](O)C[C@@H](O)CC(=O)O[C@H]1C)C[C@H](O)[C@H]2C(=O)O  biofilm inhibition IC80 (MTT; CGMCC 2.209; 48 h, 30 °C): 1000 nM
CC[C@H](C)[C@H](NC(=O)CN)C(=O)NCC(=O)N[C@@H](C)C(=O)N[C@H](C(=O)N[C@@H](CC(C)C)C(=O)N[C@@H](CCCCN)C(=O)N[C@H](C(=O)N[C@@H](CC(C)C)C(=O)N[C@H](C(=O)N[C@H](C(=O)NCC(=O)N[C@@H](CC(C)C)C(=O)N1CCC[C@H]1C(=O)N[C@@H](C)C(=O)N[C@@H](CC(C)C)C(=O)N[C@H](C(=O)N[C@@H](CO)C(=O)N[C@@H](Cc1c[nH]c2ccccc12)C(=O)N[C@H](C(=O)N[C@@H](CCCCN)C(=O)N[C@@H](CCCNC(=N)N)C(=O)N[C@@H](CCCCN)C(=O)N[C@@H](CCCNC(=N)N)C(=O)N[C@@H](CCC(N)=O)C(=O)N[C@@H](CCC(N)=O)C(N)=O)[C@@H](C)CC)[C@@H](C)CC)[C@@H](C)O)[C@@H](C)O)C(C)C)C(C)C  MIC (broth microdilution; 56452, RPMI-1640; 48 h, 30 °C): 4 µM (≈ 11.4 µg/mL)
C[C@@H]1C[C@@H]([C@H](O)CC2CC(=O)NC(=O)C2)C(=O)[C@@H](C)C1  inhibition zone diameter (ATCC 10231; concentration not given): 40 mm
C#Cc1ccc(O)c(C=NNC(=O)c2ccc(COC)cc2)c1  FICI (A39; unit not given, with: caspofungin; lower = more synergy): 1.03
OC(Cn1cncn1)(Cn1cncn1)c1ccc(F)cc1F  survival (Gu5 and G5, BALB/c mice, candidiasis; intraperitoneal, 5 mg/kg, with: CM-1 20 mg/kg; baseline: vehicle): no effect

Repeated from above:
C#Cc1ccc(C=NNC(=O)c2ccc(COC)cc2)c(O)c1  FICI (A39; unit not given, with: caspofungin; lower = more synergy): 1
